# Measurements of several laboratories.
# Every numbered part comes from another study and shows a few of its results, in no order.

# Series 1
# Target: Sal-like protein 4, full length isoform B (SALL4, Homo sapiens, UniProt Q9UJQ4-2, residues 1-616)
# Method: universal PBM
# Molecule type: double-stranded DNA, one strand shown
# Sample: in vitro
# Tested at: not given
# Setting: 8-mer, flanks averaged, mean of replicates
# Reading: higher = stronger binding
# Residues (chain): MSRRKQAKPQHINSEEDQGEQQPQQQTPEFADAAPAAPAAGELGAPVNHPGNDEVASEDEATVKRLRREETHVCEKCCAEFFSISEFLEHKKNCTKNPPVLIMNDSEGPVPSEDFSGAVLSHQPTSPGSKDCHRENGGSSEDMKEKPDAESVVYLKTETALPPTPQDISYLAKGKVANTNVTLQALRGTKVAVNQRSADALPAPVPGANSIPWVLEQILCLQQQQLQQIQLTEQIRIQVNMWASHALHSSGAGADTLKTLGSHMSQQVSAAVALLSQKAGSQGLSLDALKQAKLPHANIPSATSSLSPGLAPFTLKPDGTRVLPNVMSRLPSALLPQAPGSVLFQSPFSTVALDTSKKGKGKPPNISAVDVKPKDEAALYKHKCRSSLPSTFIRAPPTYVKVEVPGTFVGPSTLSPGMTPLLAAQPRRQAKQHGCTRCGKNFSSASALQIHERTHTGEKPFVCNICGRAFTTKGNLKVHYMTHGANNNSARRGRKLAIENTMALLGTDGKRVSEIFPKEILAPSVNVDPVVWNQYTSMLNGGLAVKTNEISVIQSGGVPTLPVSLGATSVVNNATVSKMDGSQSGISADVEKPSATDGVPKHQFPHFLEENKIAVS
Oligonucleotide,E-score
CAGTTCAC,0.0348
AAGAACGG,-0.177
AGACGTAG,0.0732
AGCCGGGA,-0.27
ACAGAGAT,0.12

# Series 2
# Target: Interferon regulatory factor 5, full length, phosphomimetic (IRF5, Homo sapiens, UniProt Q13568-2, residues 1-514, K96S/S451D/S453D/S456D/S462D)
# Method: protein-binding microarray
# Molecule type: double-stranded DNA, one strand shown
# Sample: in vitro
# Tested at: 250 nM
# Setting: 60-bp whole probe
# Added: salmon DNA 0.4 mg/ml
# Relative to: random background probes
# Reading: higher = stronger binding
# Constant ends, left off below: GCCTAGCAC … GTCTTGATTCGCTTGACGCTGCTG
Oligonucleotide,log fluorescence [z-score]
TTAGATTTCGGGTCTCGATTAGTGCTA,4.89
ATAAAAGAACTCCTGGGGGAGTGCTAG,0.462
TTAGGACTGGATTTCGGTTAGTGCTAG,4.97
GACCGTTTCGGGACTGGGGACGTGCTA,3.65
TCATGTGTTACTTTCTAACTGTGCTAG,1.19
GACGGGCTCCTTTTCCTGACGTGCTAG,-0.669
GACGGACTGCTTTTCCTTACGTGCTAG,0.0522

# Series 3
# Target: Phosphate system positive regulatory protein PHO4, full length, GST-tagged (PHO4, Saccharomyces cerevisiae, UniProt P07270, residues 1-312)
# Method: competition protein-binding microarray
# Molecule type: double-stranded DNA, one strand shown
# Sample: in vitro
# Tested at: 2 µM
# Setting: whole 60-bp probe, lowest competitor level
# Added: Cbf1 competitor, 0.05 µM
# Reading: higher = stronger binding
# Constant ends, left off below: … GTCTTGATTCGCTTGACGCTGCTG
# Residues (chain): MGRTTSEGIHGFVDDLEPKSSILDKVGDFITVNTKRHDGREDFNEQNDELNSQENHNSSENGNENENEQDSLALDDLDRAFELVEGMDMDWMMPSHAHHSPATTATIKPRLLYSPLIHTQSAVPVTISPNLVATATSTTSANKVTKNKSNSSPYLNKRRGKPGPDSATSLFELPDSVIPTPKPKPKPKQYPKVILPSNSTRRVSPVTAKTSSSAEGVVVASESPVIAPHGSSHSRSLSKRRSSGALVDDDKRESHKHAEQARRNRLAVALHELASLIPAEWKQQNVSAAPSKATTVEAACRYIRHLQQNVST
Oligonucleotide,fluorescence intensity
CACTCTGCTCACCGCTGCGTGCTTTTTGAACAAATT,9380 a.u.
CTTCTGTAAATTTGGATTGTGGGTGGACGCGCCCCG,4230 a.u.
CTATACTGTCATAGACCCGTGTGGAGGAGGCAGCGC,7230 a.u.
GAGCAATCATACCGTCACGTTCCATCTCACCGAATC,12300 a.u.
TCACGAATCCTTCTCTAACTTACGTTCAAGAGGTTC,2800 a.u.

# Mixed results
Substance,target,test,system,conditions,how to read,quantity,value
"PhoQ, residues 284 288 289 292 302 303 NLCILV","PhoP, residues 12 14 15 18 19 SPWRL (Escherichia coli, UniProt P23836)","Sort-seq, measured: YFP reporter",E. coli,"PhoQ-PhoP variant library, added: 10 µM Mg2+","relative to: high Mg2+ state, higher = stronger signaling",fold induction,8.71

# Some of these lines once more (series 2):
Oligonucleotide,log fluorescence [z-score]
ATAAAAGAACTCCTGGGGGAGTGCTAG,0.462
TTAGGACTGGATTTCGGTTAGTGCTAG,4.97
GACCGTTTCGGGACTGGGGACGTGCTA,3.65
